Published values collected from several papers.
Values joined by “and” are separate records of one study, mostly repeats; a detail may differ. ± gives the spread as reported.

Structure (SMILES) | test | system | setting | how to read | measurement | result
CSCC[C@H](N)C(=O)N[C@@H](C)C(=O)N[C@@H](CCCNC(=N)N)C(=O)N[C@@H](CCCNC(=N)N)C(=O)N[C@@H](CC(=O)O)C(=O)N[C@@H](CCCCN)C(=O)N[C@H](C(=O)N[C@@H](CC(=O)O)C(=O)N[C@@H](Cc1ccccc1)C(=O)N[C@@H](C)C(=O)N[C@@H](CCCNC(=N)N)C(=O)N[C@@H](CCCNC(=N)N)C(=O)N[C@@H](CCCNC(=N)N)C(=O)N[C@@H](CCCNC(=N)N)C(=O)NCCCCCC(=O)NCCCCC(NC(=O)CCCCCNC(=O)[C@H](CCCNC(=N)N)NC(=O)[C@H](CCCNC(=N)N)NC(=O)[C@H](CCCNC(=N)N)NC(=O)[C@H](CCCNC(=N)N)NC(=O)[C@H](C)NC(=O)[C@H](Cc1ccccc1)NC(=O)[C@H](CC(=O)O)NC(=O)[C@@H](NC(=O)[C@H](CCCCN)NC(=O)[C@H](CC(=O)O)NC(=O)[C@H](CCCNC(=N)N)NC(=O)[C@H](CCCNC(=N)N)NC(=O)[C@H](C)NC(=O)[C@@H](N)CCSC)[C@@H](C)O)C(=O)NCCCCC(NC(=O)C(CCCCNC(=O)CCCCCNC(=O)[C@H](CCCNC(=N)N)NC(=O)[C@H](CCCNC(=N)N)NC(=O)[C@H](CCCNC(=N)N)NC(=O)[C@H](CCCNC(=N)N)NC(=O)[C@H](C)NC(=O)[C@H](Cc1ccccc1)NC(=O)[C@H](CC(=O)O)NC(=O)[C@@H](NC(=O)[C@H](CCCCN)NC(=O)[C@H](CC(=O)O)NC(=O)[C@H](CCCNC(=N)N)NC(=O)[C@H](CCCNC(=N)N)NC(=O)[C@H](C)NC(=O)[C@@H](N)CCSC)[C@@H](C)O)NC(=O)CCCCCNC(=O)[C@H](CCCNC(=N)N)NC(=O)[C@H](CCCNC(=N)N)NC(=O)[C@H](CCCNC(=N)N)NC(=O)[C@H](CCCNC(=N)N)NC(=O)[C@H](C)NC(=O)[C@H](Cc1ccccc1)NC(=O)[C@H](CC(=O)O)NC(=O)[C@@H](NC(=O)[C@H](CCCCN)NC(=O)[C@H](CC(=O)O)NC(=O)[C@H](CCCNC(=N)N)NC(=O)[C@H](CCCNC(=N)N)NC(=O)[C@H](C)NC(=O)[C@@H](N)CCSC)[C@@H](C)O)C(N)=O)[C@@H](C)O (some centres unmarked) |  | C57BL/6 mouse female, small intestine | 6 h | baseline: total dose | tissue distribution | 11.4%
CC[C@H](C)[C@H](NC(=O)[C@H](CCCNC(=N)N)NC(=O)[C@H](CCCCN)NC(=O)[C@H](Cc1ccc(O)cc1)NC(=O)[C@H](CC(=O)O)NC(=O)[C@H](C)NC(=O)CNC(=O)CCOCCOCCOCCNC(=O)CN1CCN(CC(=O)O)CCN(CC(=O)O)CCN(CC(=O)O)CC1)C(=O)N[C@H](C(=O)N[C@@H](CC(C)C)C(=O)N[C@@H](CCCCN)C(=O)N[C@H](C(=O)N[C@@H](CC(N)=O)C(N)=O)C(C)C)[C@@H](C)O [copper-64 labelled] | ex vivo gamma counting | male C57BL/6J mouse, B16-F10 tumour, intestinal lymph node | intravenous, 1.85 MBq, 40 min |  | tissue uptake | 0.479 ± 0.123 %ID/g
CC(=O)N[C@H](C(=O)N[C@@H](CCCC(=O)OC(C)(C)C)C(=O)N[C@@H](CCC1CCCCC1)C(=O)N[C@@H](CC(=O)O)C(=O)COC(=O)c1c(C)cccc1C)C(C)(C)C |  | C57BL/6N mouse female, lung | intraperitoneal, dose not given, 24 h |  | tissue concentration | 29.4 µM and 122 µM and 73.4 µM
CSCC[C@H](NC(=O)CNC(=O)[C@H](CCCCN)NC(=O)[C@H](CC(C)C)NC(=O)[C@@H]1CCCN1C(=O)[C@H](CO)NC(=O)[C@H](Cc1c[nH]cn1)NC(=O)[C@H](Cc1c[nH]c2ccccc12)NC(=O)[C@H](CCCNC(=N)N)NC(=O)[C@H](CC(C)C)NC(=O)[C@H](CCCNC(=N)N)NC(=O)[C@H](Cc1c[nH]c2ccccc12)NC(=O)[C@H](CS)NC(=O)CCCCCNC(=O)CN1CCN(CC(=O)O)CCN(CC(=O)O)CCN(CC(=O)O)CC1)C(=O)O [copper-64 labelled] |  | BALB/c nude mouse, Huh-7 tumour, small intestine | intravenous, 2 h, ex vivo biodistribution |  | tissue uptake | 5.12 %ID/g
CSCC[C@H](N)C(=O)N[C@@H](C)C(=O)N[C@@H](Cc1c[nH]c2ccccc12)C(=O)N[C@@H](Cc1c[nH]cn1)C(=O)N[C@@H](CC(=O)O)C(=O)N[C@@H](CC(=O)O)C(=O)N[C@@H](CCC(=O)O)C(=O)N[C@@H](CCC(=O)O)C(=O)N[C@@H](Cc1ccccc1)C(=O)N[C@@H](C)C(=O)N[C@@H](CCCNC(=N)N)C(=O)N[C@@H](CCCNC(=N)N)C(=O)N[C@@H](CCCNC(=N)N)C(=O)N[C@@H](CCCNC(=N)N)C(=O)NCCCCCC(=O)NCCCCC(NC(=O)CCCCCNC(=O)[C@H](CCCNC(=N)N)NC(=O)[C@H](CCCNC(=N)N)NC(=O)[C@H](CCCNC(=N)N)NC(=O)[C@H](CCCNC(=N)N)NC(=O)[C@H](C)NC(=O)[C@H](Cc1ccccc1)NC(=O)[C@H](CCC(=O)O)NC(=O)[C@H](CCC(=O)O)NC(=O)[C@H](CC(=O)O)NC(=O)[C@H](CC(=O)O)NC(=O)[C@H](Cc1c[nH]cn1)NC(=O)[C@H](Cc1c[nH]c2ccccc12)NC(=O)[C@H](C)NC(=O)[C@@H](N)CCSC)C(=O)NCCCCC(NC(=O)C(CCCCNC(=O)CCCCCNC(=O)[C@H](CCCNC(=N)N)NC(=O)[C@H](CCCNC(=N)N)NC(=O)[C@H](CCCNC(=N)N)NC(=O)[C@H](CCCNC(=N)N)NC(=O)[C@H](C)NC(=O)[C@H](Cc1ccccc1)NC(=O)[C@H](CCC(=O)O)NC(=O)[C@H](CCC(=O)O)NC(=O)[C@H](CC(=O)O)NC(=O)[C@H](CC(=O)O)NC(=O)[C@H](Cc1c[nH]cn1)NC(=O)[C@H](Cc1c[nH]c2ccccc12)NC(=O)[C@H](C)NC(=O)[C@@H](N)CCSC)NC(=O)CCCCCNC(=O)[C@H](CCCNC(=N)N)NC(=O)[C@H](CCCNC(=N)N)NC(=O)[C@H](CCCNC(=N)N)NC(=O)[C@H](CCCNC(=N)N)NC(=O)[C@H](C)NC(=O)[C@H](Cc1ccccc1)NC(=O)[C@H](CCC(=O)O)NC(=O)[C@H](CCC(=O)O)NC(=O)[C@H](CC(=O)O)NC(=O)[C@H](CC(=O)O)NC(=O)[C@H](Cc1c[nH]cn1)NC(=O)[C@H](Cc1c[nH]c2ccccc12)NC(=O)[C@H](C)NC(=O)[C@@H](N)CCSC)C(N)=O (some centres unmarked) |  | C57BL/6 mouse female, uterus | dose not given, 3 h | baseline: total | tissue distribution | 1.21% and 0.83% and 2.01%
CC[C@H](C)[C@H](NC(=O)[C@H](CCCCN)NC(=O)CNC(=O)[C@H](CC(C)C)NC(=O)[C@H](Cc1ccccc1)NC(=O)[C@H](CCCCN)NC(=O)[C@H](CO)NC(=O)[C@H](Cc1ccccc1)NC(=O)[C@H](Cc1c[nH]c2ccccc12)NC(=O)[C@H](CCC(N)=O)NC(=O)[C@@H](NC(=O)[C@H](Cc1ccccc1)NC(=O)CCCCCNC(=O)CN1CCN(CC(=O)O)CCN(CC(=O)O)CCN(CC(=O)O)CC1)C(C)C)C(=O)N[C@@H](CCC(=O)O)C(=O)N1CCC[C@H]1C(=O)N[C@@H](CC(=O)O)C(=O)N[C@H](C(=O)N[C@@H](CO)C(=O)N[C@@H](CCC(N)=O)C(=O)N[C@H](C(=O)N[C@@H](CCC(N)=O)C(=O)N[C@@H](CC(=O)O)C(=O)N1CCC[C@H]1C(=O)N[C@@H](CC(N)=O)C(=O)N[C@@H](CC(=O)O)C(=O)N[C@@H](CCC(N)=O)C(=O)N[C@@H](Cc1ccc(O)cc1)C(=O)N[C@@H](CCC(=O)O)C(=O)N1CCC[C@H]1C(=O)N[C@@H](Cc1ccccc1)C(=O)O)C(C)C)C(C)C [copper-64 labelled] |  | C57BL/6 male mouse, tumour-naive, lung | 0.5 h |  | tissue uptake | 5.81 ± 0.8 %ID/g
CC[C@H](C)[C@H](NC(=O)[C@H](CCCNC(=N)N)NC(=O)[C@H](CCCCN)NC(=O)[C@H](Cc1ccc(O)cc1)NC(=O)[C@H](CC(=O)O)NC(=O)[C@H](C)NC(=O)CNC(=O)CCOCCOCCOCCNC(=O)CN1CCN(CC(=O)O)CCN(CC(=O)O)CCN(CC(=O)O)CC1)C(=O)N[C@H](C(=O)N[C@H](C(=O)N[C@@H](CCCCN)C(=O)N[C@H](C(=O)N[C@@H](CC(N)=O)C(N)=O)C(C)C)C(C)C)[C@@H](C)O [copper-64 labelled] | ex vivo gamma counting | male C57BL/6J mouse, B16-F10 tumour, intestinal lymph node | intravenous, 1.85 MBq, 40 min |  | tissue uptake | 0.91 ± 0.2 %ID/g
CN1Cc2cc(Cl)ccc2-n2c(nnc2C2CCN(c3cccc([18F])n3)CC2)C1 |  | C57BL/6 mouse male, lung | intravenous, 3.7 MBq, 60 min |  | tissue uptake | 3.5 ± 0.91 %ID/g

Excerpt of the above:
Structure (SMILES) | test | system | setting | how to read | measurement | result
CC[C@H](C)[C@H](NC(=O)[C@H](CCCNC(=N)N)NC(=O)[C@H](CCCCN)NC(=O)[C@H](Cc1ccc(O)cc1)NC(=O)[C@H](CC(=O)O)NC(=O)[C@H](C)NC(=O)CNC(=O)CCOCCOCCOCCNC(=O)CN1CCN(CC(=O)O)CCN(CC(=O)O)CCN(CC(=O)O)CC1)C(=O)N[C@H](C(=O)N[C@@H](CC(C)C)C(=O)N[C@@H](CCCCN)C(=O)N[C@H](C(=O)N[C@@H](CC(N)=O)C(N)=O)C(C)C)[C@@H](C)O [copper-64 labelled] | ex vivo gamma counting | male C57BL/6J mouse, B16-F10 tumour, intestinal lymph node | intravenous, 1.85 MBq, 40 min |  | tissue uptake | 0.479 ± 0.123 %ID/g
